Literature values as cited in several papers.
Each numbered part shows a few of the values that one paper quotes.

Series 1
Compound: OCCN1CCN(CCC=C2c3ccccc3Sc3ccc(C(F)(F)F)cc32)CC1
Cell line: MCF7
Technique: microarray
Concentration: concentration not given
Reference: DMSO
| refers to | log2 fold change |
| --- | --- |
| ZNHIT2 mRNA | 0.96 |
| SQLE mRNA | 1.69 |
| SLC38A2 mRNA | 1.21 |
| TES mRNA | 1.17 |

Other studies, line by line
| SMILES | target or system | observed | technique | concentration | measurement | value |
| --- | --- | --- | --- | --- | --- | --- |
| CNC(=N)NCCC[C@H](NC(=O)[C@H](CC(C)C)NC(=O)NNC(=O)[C@H](Cc1ccccc1)NC(=O)[C@H](CO)NC(=O)[C@H](CC(N)=O)NC(=O)[C@@H](Cc1cccnc1)NC(=O)[C@H](N)Cc1ccc(O)cc1)C(=O)NCC(N)=O | KISS1R human | cellular activity | – | – | EC50 | > 10000 nM |
| O=C1Nc2ccc(Cl)cc2C(c2ccccc2Cl)=NC1O (centres unmarked) | dopamine transporter | – | – | – | IC50 | > 10000 nM |
| CC(C)c1cccc(C(C)C)c1O | Cryptosporidium parvum | – | – | concentration not given | activity | inactive |
| NC(=O)c1ccc2nc(-c3ccc(C4(N)CCC4)cc3)c(-c3ccccc3)n2n1 | CLK1 | – | KINOMEscan | – | Kd | 310 nM |
| O=c1[nH]c2ccccc2n1C1CCN(CCCC(c2ccc(F)cc2)c2ccc(F)cc2)CC1 | dopamine D2 receptor | binding | – | – | Ki | 11.8 nM |
| CNC(=N)NCCC[C@H](NC(=O)[C@H](CC(C)C)NC(=O)NNC(=O)[C@H](Cc1ccccc1)NC(=O)[C@H](CO)NC(=O)[C@H](CC(N)=O)NC(=O)[C@@H](Cc1ccncc1)NC(=O)[C@H](N)Cc1ccc(O)cc1)C(=O)N[C@@H](Cc1ccccc1)C(N)=O | KISS1R human | – | – | – | Ki | 0.089 nM |
| O=P1(N(CCCl)CCCl)NCCCO1 (centres unmarked) | Cryptosporidium parvum | – | – | concentration not given | activity | inactive |

For quick reference, copied from above (other studies, line by line):
| SMILES | target or system | observed | technique | concentration | measurement | value |
| --- | --- | --- | --- | --- | --- | --- |
| O=P1(N(CCCl)CCCl)NCCCO1 (centres unmarked) | Cryptosporidium parvum | – | – | concentration not given | activity | inactive |
| O=c1[nH]c2ccccc2n1C1CCN(CCCC(c2ccc(F)cc2)c2ccc(F)cc2)CC1 | dopamine D2 receptor | binding | – | – | Ki | 11.8 nM |
